Results collected from several papers.
Each line is one published result; not all experiments were run side by side. “And” joins repeats or separate records; there may be more than shown. Numbers after ± are the reported error. ≈ marks a conversion by molar mass, not a printed value.

Structure (SMILES) | organism | assay | test system | setting | scale | endpoint | value
CSC(=NNC(=O)c1ccc([N+](=O)[O-])cc1)SC | Mycobacterium |  | Scrofulaceum |  |  | MIC | 100 µg/mL
CC(C)N1CN(C2c3ccccc3CCc3ccccc32)n2cc(C(=O)O)c(=O)c(O)c2C1=O | lymphocytic choriomeningitis virus | immunofluorescence |  | concentration not given |  | nucleoprotein production | not detected
C=C(C)C1C2OC(=O)C1C1(O)CC3OC34C(=O)OC2C14C (centres unmarked) | Drosophila melanogaster | coated vial bioassay | dieldrin-resistant Rdl A2'S | up to 5000 ppm, adult flies |  | mortality | not toxic
O=C(O)CCCC1C2CCCN3CCCC(CN1S(=O)(=O)c1ccc(Cl)cc1)C23 (centres unmarked) | Vesicular stomatitis virus | viral entry |  | VSV G pseudotyped HIV |  | IC50 | > 200000 nM
COC(=O)[C@H](CCCNC(=O)OC(C)(C)C)NC(=O)c1ccc(NCc2ccc3nc(N)nc(N)c3c2Cl)cc1 | Mycobacterium tuberculosis | microbial growth | H37RV |  |  | MIC90 | < 0.1 µM
COC(=O)CCCC1C2CCCN3CCCC(CN1S(=O)(=O)c1ccc(Cl)cc1)C23 (centres unmarked) | Vesicular stomatitis virus | viral entry |  | VSV G pseudotyped HIV |  | IC50 | > 200000 nM
C=C1C(=O)O[C@H]2C[C@H](C)C(/C=C/C(C)=O)=CC[C@H]12 | Human parainfluenza virus 3 | viral replication | Vero |  |  | EC50 | > 20000 nM
O=C(Cc1cccs1)N[C@@H]1C(=O)N2C(C(=O)O)=C(CSc3cccc[n+]3[O-])CS[C@H]12 | Mycobacterium tuberculosis |  | H37Rv | replicating |  | MBC | 1.6 µM (≈ 0.742 µg/mL)
O=C(CCC1CCN(c2cc(NC3CC3)ncn2)CC1)NCc1cccnc1 | Cedar virus | viral replication | Vero C1008 |  | relative to: CC50 over IC50 | selectivity index | > 42
O=C1c2ccc(O)c(O)c2C(=O)N1Cc1cccc(Cl)c1F | HIV-1 | viral replication | integrase Y143R mutant, VSV-G pseudotyped |  |  | EC50 | 1200 ± 200 nM
CN(C)c1ccc(C=Nn2c(-c3ccccc3)nc3ccccc3c2=O)cc1 | human parainfluenza virus 3 | viral replication | Vero |  |  | EC50 | > 20 µg/mL
O=C(O)CC1C2CCCN3CCCC(CN1S(=O)(=O)c1ccc(Cl)cc1)C23 (centres unmarked) | Vesicular stomatitis virus | viral entry |  | VSV G pseudotyped HIV |  | IC50 | > 200000 nM
OC12CC3CC(C1)CC(NCc1cnc(N4CCCCC4)nc1)(C3)C2 | influenza A virus | cytopathic effect | MDCK, A/WSN/33 H1N1 | 48 h |  | EC50 | 4300 ± 300 nM
c1ccc(CCNC2CCCc3c2[nH]c2ccc(C4CCCCC4)cc32)cc1 (centres unmarked) | Mycobacterium bovis |  | ATCC 35734 |  |  | MIC | 16 µg/mL
Cc1cn(C2CC(N(C)C)C(CO)O2)c(=O)[nH]c1=O (centres unmarked) | parainfluenza virus 3 | viral replication | Vero |  |  | EC50 | > 370 nM
Cc1nc(=O)c2cc(CN(C)c3ccc(C(=O)Nc4n[nH]c5ccccc45)s3)ccc2[nH]1 | Mycobacterium tuberculosis |  | pptT knockdown without ATc |  |  | MIC50 | 39.4 µM (≈ 17.5 µg/mL)
C=CC1CN(C(=O)NCC=CCSCC=CCNC(=O)N2CC(C=C)OC2=S)C(=S)O1 (centres unmarked) | unidentified influenza virus | viral replication | H3N2 |  |  | IC50 | 600 nM
Cc1cc(S(=O)(=O)N(C)CC(=O)Nc2ccn(C)c(=O)c2)c2[nH]ncc2c1 | Mycobacterium tuberculosis |  | mouse BMDM, wild type | 30 µM, 144 h |  | growth inhibition | 0.5 log10 and 1 log10
O=C1c2ccc(O)c(O)c2C(=O)N1Cc1ccc(F)c(Cl)c1 | HIV-1 | viral replication | wild type, VSV-G pseudotyped |  |  | EC50 | 1700 ± 500 nM
CC[C@H](C)[C@@H]1NC(=O)[C@H](CC(C)C)NC(=O)[C@@H](NC(=O)[C@H](CO)NC(=O)[C@H](CCCNC(=N)N)NC(=O)[C@@H](N)CO)CSSC[C@H](NC(=O)[C@H](CO)NC(=O)[C@H](CCCNC(=N)N)NC(=O)[C@@H](N)CO)C(=O)N[C@@H](CC(C)C)C(=O)N[C@@H]([C@@H](C)CC)C(=O)N[C@@H](C(C)C)C(=O)N[C@H](C(=O)N[C@@H](CCC(N)=O)C(=O)N[C@@H](CCCNC(=N)N)C(=O)N[C@@H](CC(C)C)C(=O)N[C@@H](Cc2ccccc2)C(N)=O)CSSC[C@@H](C(=O)N[C@@H](CCC(N)=O)C(=O)N[C@@H](CCCNC(=N)N)C(=O)N[C@@H](CC(C)C)C(=O)N[C@@H](Cc2ccccc2)C(N)=O)NC(=O)[C@H](C(C)C)NC1=O | Candidozyma auris | broth microdilution | DSM 21092 |  |  | MIC | 30 µg/mL
O=C1c2c(ccc(O)c2O)CN1Cc1ccc(F)c(Cl)c1 | HIV-1 | viral replication | wild type, VSV-G pseudotyped |  |  | EC50 | 450 ± 110 nM
CCC1(O)C([N+](=O)[O-])=NNc2ncnn21 (centres unmarked) | unidentified influenza virus | viral replication | MDCK, H1N1 | 48 h |  | IC50 | > 469000 nM
CC(C)(C)OC(=O)NCCC[C@H](NC(=O)c1ccc(NCc2ccc3nc(N)nc(N)c3c2Cl)cc1)C(=O)O | Mycobacterium tuberculosis |  | pptT knockdown without ATc |  |  | MIC90 | < 0.2 µM
CCC1(O)C([N+](=O)[O-])=NNc2nc(SC)nn21 (centres unmarked) | unidentified influenza virus | viral replication | MDCK, H1N1 | 48 h |  | IC50 | 32000 nM
COc1ccc(NC(=O)CCc2nc(-c3ccc(N4CCCC4)cc3)no2)cc1OC | Cedar virus | viral replication | Vero C1008 |  | relative to: CC50 over IC50 | selectivity index | > 286
CCOC(=O)c1cnn2c1NN=C([N+](=O)[O-])C2(C)O (centres unmarked) | unidentified influenza virus | viral replication | MDCK, H1N1 | 48 h |  | IC50 | 91000 nM
O=C(CCC1CCN(c2cc(NC3CC3)ncn2)CC1)NCc1ccc(F)cc1F | Cedar virus | viral replication, inhibitor | Vero C1008 | 48 h |  | IC50 | 730 nM
Cc1nc(=O)c2cc(CN(C)c3cccc(C(=O)Nc4n[nH]c5ccccc45)c3)ccc2[nH]1 | Mycobacterium tuberculosis |  | pptH knockout |  |  | MIC50 | 96.5 µM (≈ 42.3 µg/mL)
O=C(NC12CC3CC(CC(C3)C1)C2)c1cc2cc(Cl)ccc2[nH]1 | Streptococcus pneumoniae | microbial growth, broth dilution | 1629 |  |  | MIC | > 64 µM

Repeated from above:
Structure (SMILES) | organism | assay | test system | setting | scale | endpoint | value
CCOC(=O)c1cnn2c1NN=C([N+](=O)[O-])C2(C)O (centres unmarked) | unidentified influenza virus | viral replication | MDCK, H1N1 | 48 h |  | IC50 | 91000 nM
O=C(CCC1CCN(c2cc(NC3CC3)ncn2)CC1)NCc1ccc(F)cc1F | Cedar virus | viral replication, inhibitor | Vero C1008 | 48 h |  | IC50 | 730 nM
Cc1nc(=O)c2cc(CN(C)c3cccc(C(=O)Nc4n[nH]c5ccccc45)c3)ccc2[nH]1 | Mycobacterium tuberculosis |  | pptH knockout |  |  | MIC50 | 96.5 µM (≈ 42.3 µg/mL)
O=C(NC12CC3CC(CC(C3)C1)C2)c1cc2cc(Cl)ccc2[nH]1 | Streptococcus pneumoniae | microbial growth, broth dilution | 1629 |  |  | MIC | > 64 µM
